Measurements gathered from unrelated publications.
Lines come from different studies, so protocols differ. Several values in a cell are separate wells, animals, samples, runs or records. ± gives the spread as reported.

COC1CN([C@H]2CC[C@H]([C@@]3(C)Oc4c(Cl)cc(C(=O)NCc5c(SC)cc(C)[nH]c5=O)c(C)c4O3)CC2)C1  log2 fold change (RNA-seq, measured: SGCB; human, whole blood; dose not given, 24 h; relative to: pretreatment baseline): 1.09
COc1ccccc1-c1ccncc1C(=O)Nc1nnc(OCc2ccc(Cl)cc2)s1  colony survival (Brca1 Δ11/Δ11 Polq-/- MEF, Mus musculus; 20 µM; relative to: 0 µM): 17.7%
COCC1CN(C2CCN(c3cc(OC)c(Nc4ncc(Br)c(Nc5ccc6c(c5P(C)(C)=O)OCCO6)n4)cc3C)CC2)C1  not evaluable patients (RECIST 1.1; advanced EGFR-mutant NSCLC patients; 30 mg once daily): 0%
CC(=O)Nc1ccc(C2CCCCC2)cc1  hepatic clearance (hepatocyte stability; cryopreserved human hepatocytes; 1 µM): 19 mL/min/kg
COc1ccc(C(=O)CCc2cc(C(CCc3ccc(O)cc3OC)c3ccc(O)cc3)c(O)cc2OC)cc1 (racemic)  TXB2 level (human blood; 10 µM, added: A23187): 1010 ± 349 pg/mL
Nc1nc2cc(CC[C@H]3C[C@@H](n4ccc5c(N)ncnc54)[C@H](O)[C@@H]3O)ccc2cc1Br  %ΔTGI (A-427 xenograft, mouse; 10.0 mg/kg/day, day 34): 115%
Nc1ncc(-c2cc(-c3cnn(CC(F)(F)F)c3)ncc2F)nc1C(=O)NC1CNCC(F)C1 (stereo not shown)  remaining binding (CAMK2A; KINOMEscan; 1 µM; relative to: DMSO control): 100%
COC1OC(C)C(OC2OC(C)C(OS(=O)(=O)O)C(OC3OC(C)C(OC4OC(C)C(OS(=O)(=O)O)C(OC5OC(C)C(OS(=O)(=O)O)C(OS(=O)(=O)O)C5OS(=O)(=O)O)C4OS(=O)(=O)O)C(OS(=O)(=O)O)C3OS(=O)(=O)O)C2OS(=O)(=O)O)C(OS(=O)(=O)O)C1OS(=O)(=O)O (stereo not shown)  activated partial thromboplastin time (human plasma; 32 µg/mL): 59.1 s and 57.7 s and 56.9 s
CN1CCC[C@]1(C)/C=C/S(=O)(=O)NC(=O)Nc1c2c(cc3c1CCC3)CCC2  IL-1β inhibition (human, whole blood ex vivo; 12.5 mg twice daily, day 1, 12 h, multiple ascending dose, added: LPS and ATP): 81.2%
COC1OC(C)C(OC2OC(C)C(O)C(OC3OC(C)C(OC4OC(C)C(O)C(OC5OC(C)C(OC6OC(C)C(O)C(OC7OC(C)C(O)C(OS(=O)(=O)O)C7OS(=O)(=O)O)C6OS(=O)(=O)O)C(OS(=O)(=O)O)C5OS(=O)(=O)O)C4OS(=O)(=O)O)C(OS(=O)(=O)O)C3OS(=O)(=O)O)C2OS(=O)(=O)O)C(OS(=O)(=O)O)C1OS(=O)(=O)O (stereo not shown)  activated partial thromboplastin time (human plasma; 64 µg/mL): 69.2 s and 67.9 s and 70.3 s
Cc1ccc(N(O)/N=N/c2ccc(S(=O)(=O)Nc3nccs3)cc2)cc1  inhibition (ABTS scavenging; 20 µg/mL): 43.8%
O=C(NCCO)c1ccc(C2CCCCC2)cc1  hepatic clearance (liver microsome stability; cynomolgus liver microsomes; 1 µM): 38 mL/min/kg
COC1OC(C)C(OS(=O)(=O)O)C(OC2OC(C)C(OS(=O)(=O)O)C(OC3OC(C)C(OS(=O)(=O)O)C(OC4OC(C)C(OS(=O)(=O)O)C(OC5OC(C)C(OS(=O)(=O)O)C(OS(=O)(=O)O)C5OS(=O)(=O)O)C4OS(=O)(=O)O)C3OS(=O)(=O)O)C2OS(=O)(=O)O)C1OS(=O)(=O)O (stereo not shown)  activated partial thromboplastin time (human plasma; 32 µg/mL): 61.6 s and 61.3 s and 62.9 s

Repeated from above:
COCC1CN(C2CCN(c3cc(OC)c(Nc4ncc(Br)c(Nc5ccc6c(c5P(C)(C)=O)OCCO6)n4)cc3C)CC2)C1  not evaluable patients (RECIST 1.1; advanced EGFR-mutant NSCLC patients; 30 mg once daily): 0%
